Assay results from different studies.
Each numbered part is a random draw from the data of one study; scales do not carry over between parts.

Set 1 — technique: RNAcompete; form: RNA; medium: in vitro; tested at: 20 nM; notes: 7-mer, probes averaged, single round; baseline: mean of 7-mers; direction: higher = stronger binding
Target: PABPC1L2, full length, GST fusion (mouse, UniProt A0ABA7IW68)
Target sequence (chain): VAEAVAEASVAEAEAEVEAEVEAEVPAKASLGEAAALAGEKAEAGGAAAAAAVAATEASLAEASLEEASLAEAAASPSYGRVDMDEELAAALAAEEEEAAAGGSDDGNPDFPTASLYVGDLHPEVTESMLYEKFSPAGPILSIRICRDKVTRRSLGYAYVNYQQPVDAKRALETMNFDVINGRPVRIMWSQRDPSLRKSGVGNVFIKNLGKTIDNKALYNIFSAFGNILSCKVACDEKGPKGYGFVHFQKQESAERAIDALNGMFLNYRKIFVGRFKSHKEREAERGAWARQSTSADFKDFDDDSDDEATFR
With `GACUCAC` the 7-mer Z-score was -0.22.
For `UACCGGU`, the 7-mer Z-score was -0.304.
With `UAUGGGC` the 7-mer Z-score was 0.0424.
`CUAUAUC` gave a 7-mer Z-score of -0.257.
`GCCCGGU` has a 7-mer Z-score of -0.22.
The 7-mer Z-score of `UCAUCCC` is reported as -0.432.
`UUGUAAU` has a 7-mer Z-score of -0.318.
The 7-mer Z-score of `AAGACGU` is reported as 0.358.

Set 2 — technique: protein binding microarray; form: double-stranded DNA, one strand shown; medium: in vitro; tested at: not given; baseline: not given; direction: higher = stronger binding
Target: Histone acetyltransferase KAT6A, both winged helices, GST fusion (KAT6A, Homo sapiens, UniProt Q92794, residues 1-181)
Notes: 8-mer, flanks averaged, mean of 2 arrays, mostly near background
Target sequence (chain): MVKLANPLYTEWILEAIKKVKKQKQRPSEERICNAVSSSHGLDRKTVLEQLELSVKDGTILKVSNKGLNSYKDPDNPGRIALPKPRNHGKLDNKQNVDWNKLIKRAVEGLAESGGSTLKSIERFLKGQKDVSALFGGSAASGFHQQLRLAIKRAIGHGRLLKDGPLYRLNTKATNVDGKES
With `ACGGGCGG` the E-score was 0.258.
With `AGTGCTGC` the E-score was -0.0298.
`AGGAGTCG` has an E-score of -0.223.
With `CCCGATCA` the E-score was 0.0881.
For `ATGGGGTA`, the E-score was -0.229.
With `CGCGACAA` the E-score was 0.326.

Set 3 — technique: protein-binding microarray; form: double-stranded DNA, one strand shown; medium: in vitro; tested at: 2540 nM top; notes: 60-bp whole probe; with: salmon DNA 0.4 mg/ml; baseline: random background probes; direction: higher = stronger binding; constant ends, left off below: GCCTAGCAC … GTCTTGATTCGCTTGACGCTGCTG
Target: Interferon regulatory factor 3, full length, phosphomimetic (IRF3, Homo sapiens, UniProt Q14653, residues 1-427, S386D/S396D/S398D/S402D/T404D/S405D)
Residues (chain): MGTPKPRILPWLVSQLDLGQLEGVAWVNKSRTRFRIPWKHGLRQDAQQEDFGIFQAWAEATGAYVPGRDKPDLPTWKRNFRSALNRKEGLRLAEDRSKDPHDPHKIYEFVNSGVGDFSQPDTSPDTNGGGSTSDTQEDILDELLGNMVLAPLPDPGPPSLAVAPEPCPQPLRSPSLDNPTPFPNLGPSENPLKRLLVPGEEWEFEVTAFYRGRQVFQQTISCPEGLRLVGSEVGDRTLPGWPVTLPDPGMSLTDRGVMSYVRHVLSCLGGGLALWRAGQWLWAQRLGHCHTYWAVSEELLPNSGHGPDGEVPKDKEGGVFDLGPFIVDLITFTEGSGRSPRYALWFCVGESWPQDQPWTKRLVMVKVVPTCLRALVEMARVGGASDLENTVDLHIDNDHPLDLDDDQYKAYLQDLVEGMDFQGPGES
`TTAGGTTTCGGACTGGGTCAGTGCTAG`: “fitted relative affinity” 4.06 z-score.
Under “fitted relative affinity”, `TTCGGTATCGGGTATCGGTTAGTGCTA` is recorded as 2.82 z-score.
`GACGGACTGGACTTTCCGGACGTGCTA`: “fitted relative affinity” 0.442 z-score.
For `TTAGGACTGGTTATCCTTTAGTGCTAG`, “fitted relative affinity” read 0.492 z-score.
`TTAGGTATGGACTATCGGTTAGTGCTA` — result for “fitted relative affinity”: -0.444 z-score.
Under “fitted relative affinity”, `GACGGACTGCTTATCGTGACGTGCTAG` is recorded as -0.358 z-score.
Under “fitted relative affinity”, `TCAACCTTCGAGTCTGCAACTGTGCTA` is recorded as -0.18 z-score.

Other studies, line by line
`PhoQ, residues 284 288 289 292 302 303 ASVMEA` gave a fold induction of 3.11 (PhoP, residues 12 14 15 18 19 SMASL (Escherichia coli, UniProt P23836); Sort-seq, item: YFP reporter; E. coli; PhoQ-PhoP variant library, with: 10 µM Mg2+; baseline: high Mg2+ state, higher = stronger signaling).
